# Measurements from different studies.
# Numbers after ± are the reported error.
Compound,cell line,test,setting,how to read,endpoint,result
CC(=O)Oc1ccc(/C=C/C(=O)Nc2nc(=O)n([C@@H]3O[C@H](C)[C@@H](OC(C)=O)[C@H]3OC(C)=O)cc2F)cc1OC(C)=O,ASPC1,"cell viability, MTT",,relative to: NHDF fibroblasts over ASPC1,selectivity index,1.35
CC(=O)N1CCCC[C@H]1C(=O)NC(C)(C)C(=O)N1CCCC[C@H]1C(=O)NC(C)(C)C(=O)NC(C)(C)C(=O)N[C@@H](CC(C)C)C(=O)NCCC(=O)N[C@@H](C)C(=O)NC(C)(C)C(=O)NC(C)(C)C(=O)N1CCCC[C@H]1C(=O)NC(C)(C)C(=O)NCC(=O)N[C@@H](CC(C)C)C(=O)NC(C)(C)C(=O)N[C@@H](CC(C)C)C[N+]1=C2CCCN2CCC1,39 cancer cell lines,,"48 h, mean over panel",,GI50,0.437 µM
C=CCc1cc(OC)c(OC)c(OC)c1OC,HCT-116,"cell growth or viability, MTT",72 h,,GI50,> 250 µM
CC[C@H]1OC(=O)[C@H](C(C)C)NC(=O)[C@H](C)OC(=O)[C@@H](C(C)C)NC(=O)[C@@H](C(C)C)OC(=O)[C@H](C(C)C)NC(=O)[C@H](C)OC(=O)[C@@H](C(C)C)NC(=O)[C@@H](C(C)C)OC(=O)[C@H](C(C)C)NC(=O)[C@H](C)OC(=O)[C@@H](C(C)C)NC1=O,U-87 MG,PI staining flow cytometry,"0.8 µM, 12 h",relative to: untreated,G0/G1 phase cells increase,40.9%
CC(C)CC(O)(CC(C)C)c1cn(C(=O)N2CCCC2)nn1,mouse T-cells,"SILAC proteomics, refers to: TPI1","1 nM, 6 h, unit not given",relative to: DMSO,protein level,1.12 ± 0.1
CC(=O)N[C@@H](Cc1c[nH]c2ccccc12)C(=O)N[C@@H](CCC(=O)O)C(=O)N[C@@H](C)C(=O)N[C@@H](CC(=O)O)C(=O)COC(=O)c1c(C)cccc1C,THP-1 FKBP-caspase-4,LDH release,"10 µM, together with: B/B 50 nM",,pyroptosis,decreased
CC[C@@]1(OC(=O)CCC(=O)NCCCC[C@H](NC(=O)[C@H](Cc2ccccc2)NC(=O)[C@H](Cc2ccccc2)NC(=O)CCSC2=C(/C=C/C3=[N+](C)c4ccccc4C3(C)C)CCC/C2=C\C=C2\N(C)c3ccccc3C2(C)C)C(=O)N[C@@H](CCCCNC(=O)CCCC[C@@H]2SC[C@@H]3NC(=O)N[C@@H]32)C(=O)O)C(=O)OCc2c1cc1n(c2=O)Cc2cc3ccccc3nc2-1,4T1,CCK-8,"5 µM, 4 h then 24 h, together with: 808 nm laser 1 W/cm2 5 min",relative to: untreated,viability,32.5%
CN1C(=O)C2(Cc3ccc(CC45SSC(CO)(C(=O)N4C)N(C)C5=O)cc3)SSC1(CO)C(=O)N2C (racemic),MCF7,"microarray, refers to: TGFB3","600 nM, unit not given, together with: deferoxamine 300 µM",relative to: deferoxamine alone,mRNA level change,-1.8
CCCCN(CCCC)CC(O)COc1c2ccoc2c(OC)c2oc(CC)cc(=O)c12 (stereo not drawn),HTB-140,MTT,,relative to: IC50 HaCaT over IC50 HTB-140,selectivity index,2.48
C[C@H]1C(OCCCCC[P+](c2ccccc2)(c2ccccc2)c2ccccc2)O[C@@H]2O[C@@]3(C)CCC4[C@H](C)CCC1[C@]42OO3 (stereo partly drawn),T24,MTT,72 h,relative to: HUVEC IC50 over T24 IC50,selectivity index,1.18
Cc1ccc(-n2nc3c(=O)n(CCCC(=O)NCC(C)c4ccccc4)nc(C)c3c2C)cc1 (stereo not drawn),MIA PaCa-2,annexin V/PI flow cytometry,"100 µM, 48 h",,apoptotic cells,38.3%
CC[C@H](C)[C@H](NC(=O)[C@@H](NC(=O)[C@@H](NC(=O)[C@@H](N)C(C)C)C(C)C)[C@@H](C)CC)C(N)=O,PC-12,"Aβ42-induced neurotoxicity, inhibitor, MTT","concentration not given, 6 h, 37 °C, peptide to Aβ42 1:2, together with: Aβ42 2 µM",relative to: untreated cells,viability,97%
CC(C)C[C@@H](N)C(=O)NCC(=O)N[C@H](C)C(=O)N[C@H](CO)C(=O)N[C@H](Cc1c[nH]c2ccccc12)C(=O)N[C@H](Cc1c[nH]cn1)C(=O)N[C@H](CCCNC(=N)N)C(=O)N1CCC[C@@H]1C(=O)N[C@H](CC(=O)O)C(=O)N[C@H](CCCCN)C(=O)N[C@H](CCCCN)C(=O)N[C@H](CCCNC(=N)N)C(=O)NCCCCCC(=O)N[C@@H](CCCCN)C(=O)N[C@@H](CCCNC(=N)N)C(=O)N[C@@H](CCCCN)C(=O)N[C@H](C(=O)N[C@@H](CC(N)=O)C(=O)N[C@@H](CC(N)=O)C(=O)N[C@@H](CC(N)=O)C(=O)N1CCC[C@H]1C(=O)N[C@@H](CCCNC(=N)N)C(=O)N[C@H](C(=O)N[C@@H](CS)C(N)=O)[C@@H](C)O)[C@@H](C)O,CHO cells expressing CXCR4,"inhibitor, western blot","50 µM, 30 min, together with: SDF-1α 12.5 nM",,ERK phosphorylation,decreased
CCN(CC)CCOc1ccc(-c2nnn(Cc3ccc(OC)cc3)c2N)cc1,primary human vestibular schwannoma,,"5 µM, 7 days",,total cell count,no effect
CC12CCC3(CCC(=O)NCCCNc4ccnc5cc(Cl)ccc45)C(C)(OOC3(C)O1)O2,HL-60,"cell growth or viability, resazurin","10 µM, 48 h",,inhibition,6.3%
C[C@H]1C(OCCCCCCCC[P+](c2ccccc2)(c2ccccc2)c2ccccc2)O[C@@H]2O[C@@]3(C)CCC4[C@H](C)CCC1[C@]42OO3 (stereo partly drawn),J82 and T24,"western blot, refers to: p21","concentration not given, 48 h",,protein level,increased
O=C(O)CCC(NP(=O)(O)OCCC[C@@H](NC(=O)CCC(NC(=O)CCCCCNC(=O)CCCCCNC(=O)c1ccc([18F])cc1)C(=O)O)C(=O)O)C(=O)O (stereo partly drawn),CWR22Rv1,,1 h,,internalized fraction,84.9%
CCCCCCCCC=CCCCCCCCC(=O)OC(COC(=O)Cc1c(C)n(C(=O)c2ccc(Cl)cc2)c2ccc(OC)cc12)COP(=O)([O-])OCC[N+](C)(C)C (stereo not drawn),MDA-MB-468,SRB,,relative to: MCF-10A IC50 over MDA-MB-468 IC50,selectivity index,2.69
C[C@H]1C(OCCCCCCCCC[P+](c2ccccc2)(c2ccccc2)c2ccccc2)O[C@@H]2O[C@@]3(C)CCC4[C@H](C)CCC1[C@]42OO3 (stereo partly drawn),T24,MTT,72 h,relative to: HUVEC IC50 over T24 IC50,selectivity index,2.23
NC(=O)CCCCC=C1C(=O)OC1CCc1ccccc1 (stereo not drawn),ABHD16A-/- mouse peritoneal macrophages,,"1 µM, 4 h, together with: basal or LPS",,lyso-PS level,no effect
CC/C=C\C/C=C\C/C=C\C/C=C\C/C=C\C/C=C\CCC(=O)Nc1ccn(C2OC(CO)C(O)C2(F)F)c(=O)n1 (stereo not drawn),OVCAR-4,NCI60 screen,,,CC50,57.2 µM
